# Measured values collected from several papers.
# Compare with care: the assays were run in different laboratories. ± marks the error that the study gave.
# Cell line: T47D
Structure (SMILES),test,setting,how to read,endpoint,value
Cc1nc(NC(=O)N2CCC[C@H]2C(N)=O)sc1-c1ccnc(C(C)(C)C(F)(F)F)c1,"S6 phosphorylation, inhibitor, in-cell western, item: phospho-S6 Ser235/236",2 h,,IC50,70.2 nM
CSc1nc(-c2ccc(Cl)cc2)c2c(NC(=O)c3ccccc3)nnc-2[nH]1,SRB,"10 µM, NCI60 single-dose screen",reference: untreated,cell growth,82.5%
COC(=O)c1cc(C(C)=NNc2nc(-c3ccc4c(c3)OCCCO4)cs2)ccc1O,flow cytometry,"10 µM, 72 h",,cells in G1 phase,74.2 ± 1.87%
CCCCN1CCN(c2ccc3[nH]c(-c4ccc5[nH]c(-c6ccc(OCC)c(OCC)c6)nc5c4)nc3c2)CC1,SRB,"10 µM, 48 h",,growth percent,39.9%
O=C(Nc1nnc2n3c(nc(-c4ccc(Cl)cc4)c1-2)SCC3=O)c1ccccc1,SRB,"10 µM, NCI60 single-dose screen",reference: untreated,cell growth,76.2%
Cc1nc(NC(=O)N2CCC[C@H]2C(N)=O)sc1-c1ccnc(C(C)(C)C(F)(F)F)c1,"growth rate inhibition, CellTiter-Glo",120 h,,IC50,481 nM
CCC(=O)Nc1cc(Nc2cc(NC3CC3)n3ncc(C#N)c3n2)ccc1C,"cell growth, CellTiter-Glo",72 h,,IC50,1200 to 2800 nM
O=C(Nc1nnc2n3c(=S)[nH][nH]c3nc(-c3ccc(Cl)cc3)c1-2)c1ccccc1,SRB,"10 µM, NCI60 single-dose screen",reference: untreated,cell growth,89.6%
O=C(Cc1ccccc1)Nc1nnc(CCSCCc2nnc(NC(=O)Cc3ccccc3)s2)s1,"cell proliferation, inhibitor, cell counting",144 h,,EC50,~20 µM
C[C@H](Nc1ccc2c(c1)OCCn1cc(N3C(=O)OC[C@H]3C(F)F)nc1-2)C(N)=O,"Akt phosphorylation, inhibitor, in-cell western, item: Akt pSer473",2 h,,IC50,7.3 nM
O=C1NCCc2[nH]c(-c3ccncc3)cc21,MTS,NCI60 panel,,IC50,> 10000 nM
O=c1ccn(Cc2cn(-c3c4ccccc4nc4ccccc34)nn2)c(=O)[nH]1,NCI60 single-dose screen,10 µM,,growth percentage,38%
O=C(/C=C/C=C/C=C/C1CCCCC1)NC1=C[C@@](O)(/C=C/C=C/C=C/C(=O)NC2=C(O)CCC2=O)[C@@H]2O[C@@H]2C1=O,"cell growth, CellTiter-Glo",78 h,,GI50,10.8 µM
C=CC(=O)N1CCC(COCC(=O)N2CCN(c3nc(-c4cnc(N)nc4C(F)F)nc(N4CCOC[C@@H]4C)n3)CC2)CC1,cell growth,72 h,,GR50,0.8 nM
CCCCN1CCN(c2ccc3[nH]c(-c4ccc5[nH]c(-c6ccc(OCC)cc6)nc5c4)nc3c2)CC1,SRB,"10 µM, 48 h",,growth percent,59.6%
CCC(=O)N1CCC(COCC(=O)N2CCN(c3nc(-c4cnc(N)nc4C(F)F)nc(N4CCOC[C@@H]4C)n3)CC2)CC1,"FOXO1 translocation, kinase translocation reporter",2 h,,IC50,121 nM
C#C[C@@]1(O)[C@@H](CO)O[C@@H](n2cc(Br)c3c(N)ncnc32)[C@@H]1O,SRB,NCI-60 screen,,TGI,177 nM
CCOc1ccc(-c2nc3cc(-c4nc5cc(N6CCN(C)CC6)ccc5[nH]4)ccc3[nH]2)cc1OCC,SRB,"10 µM, 48 h",,growth percent,15.2%

# Some of these lines once more:
Structure (SMILES),test,setting,how to read,endpoint,value
CCCCN1CCN(c2ccc3[nH]c(-c4ccc5[nH]c(-c6ccc(OCC)cc6)nc5c4)nc3c2)CC1,SRB,"10 µM, 48 h",,growth percent,59.6%
